Published values from different studies.
± gives the spread as reported.
AURKA: Aurora kinase A (AURKA, Homo sapiens, UniProt O14965)
Thiamine transporter ThiT: Thiamine transporter ThiT (Lactococcus lactis subsp. cremoris, UniProt A2RI47)
NOD2: Nucleotide-binding oligomerization domain-containing protein 2 (NOD2, Homo sapiens, UniProt Q9HC29)

SMILES	target	assay	test system	setting	Kd [nM]
COC(=O)Nc1ccc2c(c1)c(Cc1ccc(C(=O)NS(=O)(=O)c3ccc(C(F)(F)F)cc3)cc1OC)cn2C	Tumor necrosis factor receptor superfamily member 1A, extracellular domain (Homo sapiens, UniProt P19438)	binding, 19F NMR	PBS	pH 7.4	10000
Nc1nc2c(-c3c(C(F)(F)F)cc4c(N5CCNCC5)nc(OCC56CCCN5CCC6)nc4c3F)ccc(F)c2s1	GTPase KRas, GDP-bound (KRAS, Homo sapiens, UniProt P01116, G12D)	SPR	–	–	9
CC(C)C[C@H](NC(=O)[C@@H](NC(=O)[C@@H]1CCCN1C(=O)[C@@H]1CCCN1C(=O)[C@@H]1CCCN1C(=O)[C@H](CC(N)=O)NC(=O)[C@@H]1CCCN1C(=O)[C@H](C)NC(=O)[C@@H]1CCCN1C(=O)CNC(=O)[C@H](CCCCN)NC(=O)[C@@H](N)[C@@H](C)O)C(C)C)C(=O)N[C@@H](CCCCN)C(=O)N[C@H](C(=O)O)C(C)C	PACSIN3 SH3 domain, chicken	binding	–	pH 7	68600 ± 5700
O=C(CCCOc1ccc(Cl)cc1Cl)N/N=C/c1ccc[nH]1	1-deoxy-D-xylulose-5-phosphate synthase (dxs, Deinococcus radiodurans, UniProt Q9RUB5)	binding, SPR	–	–	260000
CCOc1cccc([C@H]2CC(=O)Nc3c2c(C)nn3-c2ccc3nncn3n2)c1	DNA damage-binding protein 1 (DDB1, Homo sapiens, UniProt Q16531)	binding, SPR	–	–	> 73000
C=C(CC(O)C(=O)O)C(=O)O (racemic)	Methylcytosine dioxygenase TET2, catalytic domain (TET2, Homo sapiens, UniProt Q6N021)	binding, microscale thermophoresis	–	–	300
CN(C)CCNC(=O)c1cccc2c(NCCCCc3c(N)nc(N)nc3N)c3ccccc3nc12	RNA with C–C mismatch	binding, ITC	–	25 °C, 1	770 ± 280
CC(C)C[C@H](NC(=O)[C@@H](NC(=O)[C@H](CC(C)C)NC(=O)[C@H](CS)NC(=O)CNC(=O)[C@H](CO)NC(=O)[C@H](CCCCN)NC(=O)[C@H](CCCCN)NC(=O)[C@H](CCCCN)NC(=O)CNC(=O)[C@H](CCCNC(=N)N)NC(=O)[C@H](CCCNC(=N)N)NC(=O)[C@H](C)NC(=O)c1ccc2c(c1)C(=O)OC21c2ccc(O)cc2Oc2cc(O)ccc21)C(C)C)C(=O)O	geranylgeranyltransferase type-I (Rattus norvegicus, UniProt P53610+Q04631)	binding, fluorescence anisotropy	–	with: GGPP 1 µM	56 ± 8
COc1c2[nH]c(=O)c(=O)c2c(OC)c2c(=O)c3ccccc3c(=O)c12	AURKA	binding, BLI	–	–	10500
C[C@H](CCC(=O)NCCc1ccc(-c2ccccc2)cc1)[C@H]1CC[C@H]2[C@@H]3CC[C@@H]4CC(=O)CC[C@]4(C)[C@H]3CC[C@]12C	Nuclear receptor ROR-gamma (RORC, Homo sapiens, UniProt P51449)	binding, MST	–	–	87.4
Fc1cc2c(c3ncccc13)OCN(CCc1cccc(Br)c1)C2	Large ribosomal subunit protein uL10 (rplJ, Escherichia coli, UniProt P0A7J3)	binding	–	–	20000
NC(=O)CN(CC(=O)O)CC(=O)O	Zn2+	binding, ITC	–	pH 7.0, 25 °C	231 ± 10
COc1cc(C2CC(=O)Nc3nc(N)[nH]c(=O)c32)ccc1O (centres unmarked)	uncharacterized protein (Leishmania donovani, UniProt A0A3Q8IA09)	competitive ITC	–	with: glutamate 60 µM	2500
Cc1ncc(Cc2csc(C=NNC(=O)Cc3ccccc3)c2C)c(N)n1 (mixture of isomers)	Thiamine transporter ThiT	binding, ITC	–	–	20900
Cc1[nH]c2c(O)c3c(c(O)c2c1C(=O)NC1CCNCC1)C(=O)c1ccccc1C3=O	AURKA	binding, tryptophan fluorescence quenching	–	pH 7.5, 25 °C, AurA 3.0 µM	35600 ± 4400
COC(=O)CC[C@@H](NC(=O)[C@H](C)NC(=O)[C@@H](C)O[C@H]1[C@H](O)[C@@H](CN)OC(O)[C@@H]1NC(C)=O)C(N)=O (some centres unmarked)	NOD2	binding	–	pH 6.5	2 to 10

SMILES	target	assay	test system	setting	Kd [nM]
O=C(Nc1ccccc1O)c1ccc(-c2ccc(Cl)cc2Cl)o1	Heat shock protein 90, N-terminal domain (Plasmodium falciparum, UniProt Q8IC05)	binding, SPR	–	–	2450
[3H]CC([3H])C(=O)NC1CN(CCCCC2CCN(CC(=O)N3c4ccccc4NC(=O)c4ccccc43)CC2)CCN(CCCOc2nsnc2C2=CCCN(C)C2)C1 (centres unmarked)	Muscarinic acetylcholine receptor M2 (CHRM2, Homo sapiens, UniProt P08172)	association and dissociation kinetics	CHO cell homogenates	23 °C	0.2 ± 0.03
C[C@H](N)C(=O)N[C@@H](CCCNC(=N)N)C(=O)N[C@H](C(=O)N[C@@H](CCCC[N+](C)(C)C)C(=O)N[C@@H](CCC(N)=O)C(=O)N[C@H](C(=O)N[C@@H](C)C(=O)N[C@@H](CCCNC(=N)N)C(=O)N[C@@H](CCCCN)C(=O)N[C@@H](CO)C(=O)N[C@H](C(=O)NCC(=O)O)[C@@H](C)O)[C@@H](C)O)[C@@H](C)O	MORC family CW-type zinc finger protein 3, CW domain (MORC3, Homo sapiens, UniProt Q14149)	binding, tryptophan fluorescence	–	–	~640
CC[C@H](C)[C@H](NC(=O)[C@H](Cc1ccc(O)cc1)NC(=O)[C@@H](NC(=O)[C@H](Cc1ccc(OP(=O)(O)O)cc1)NC(=O)[C@H](CC(N)=O)NC(=O)[C@H](CC(N)=O)NC(=O)CNC(=O)[C@@H](N)CC(N)=O)C(C)C)C(=O)N[C@@H](CC(=O)O)C(=O)N1CCC[C@H]1C(=O)N[C@H](C(=O)N[C@@H](CCC(N)=O)C(=O)N[C@@H](CC(=O)O)C(=O)O)[C@@H](C)O	SH2 domain-containing protein 1B, SH2 domain (SH2D1B, Homo sapiens, UniProt O14796)	binding, fluorescence polarization	–	phosphopeptide probe	~1000
O=C(/C=C/c1ccc(Cl)cc1)N1CCC2(CC1)CN(Cc1ccc(Cl)c(Cl)c1)C(=O)O2	G-protein coupled receptor 183 (GPR183, Homo sapiens, UniProt P32249)	antagonist, Schild analysis	–	with: 7α,25-OHC	64
N=C(CCl)NCCNc1c2c(c(NCCNC(=N)CCl)c3sccc13)C(=O)c1ccccc1C2=O	AURKA	binding, tryptophan fluorescence quenching	–	pH 7.5, 25 °C, AurA 3.0 µM	33200 ± 4600
CCCCCCCCCc1nc2cc(Cl)ccc2c(=O)n1CCN	Staphylococcus aureus membranes	membrane binding	–	–	22000 ± 1700
Cc1ncc(Cc2csc(C=NNC(=O)Cc3cccc(O)c3)c2C)c(N)n1 (mixture of isomers)	Thiamine transporter ThiT	binding, ITC	–	–	28800
C=C1C(=O)OC[C@H]1[C@H](c1cc(OC)c(OC)c(OC)c1)c1cc(OC)c2c(c1)OCO2	Carnitine O-palmitoyltransferase 1, liver isoform (CPT1A, Homo sapiens, UniProt P50416)	binding, MST	–	lysate	1620
N=C(N)NCCC[C@H](NC(=O)[C@H](CS)NC(=O)[C@H](Cc1ccc(O)cc1)NC(=O)[C@H](Cc1c[nH]c2ccccc12)NC(=O)[C@H](CCCNC(=N)N)NC(=O)[C@H](Cc1c[nH]c2ccccc12)NC(=O)CNC(=O)[C@H](Cc1c[nH]cn1)NC(=O)CNC(=O)CN)C(N)=O	supercoiled pUC19 plasmid DNA	tryptophan fluorescence	–	per base pair, 1 mM TCEP	4100 ± 500
CN(C)CCCSC(=S)N1CCN(C(=O)/C=C/c2coc3ccccc3c2=O)CC1	Nucleoprotein (N, Tomato spotted wilt virus, UniProt P25999)	binding, biolayer interferometry	–	wild-type nucleocapsid protein	7600
C[C@H](N)C(=O)N[C@H](CCC(=O)O)C(N)=O	NOD2	binding, SPR	–	pH 6.5	12 to 24
O=C1c2ccc(O)cc2-c2c(-c3ccc(O)cc3)oc3cc(O)cc1c23	Heat shock protein HSP 90-alpha, N-terminal domain (HSP90AA1, Homo sapiens, UniProt P07900)	binding, fluorescence polarization	–	N-terminal domain fragment	13800
COc1ccc(C(=O)Nc2cc(-c3ccc(I)cc3)no2)cc1 [iodine-125 labelled]	Alpha-synuclein, fibrils (SNCA, Homo sapiens, UniProt P37840)	radioligand, radioligand saturation binding	–	SNCA 50 nM	0.48 ± 0.08
C[C@H](N)C(=O)N[C@@H](CCCNC(=N)N)C(=O)N[C@H](C(=O)N[C@@H](CCCC[N+](C)(C)C)C(=O)N[C@@H](CCC(N)=O)C(=O)N[C@H](C(=O)N[C@@H](C)C(=O)N[C@@H](CCCNC(=N)N)C(=O)N[C@@H](CCCCN)C(=O)N[C@@H](CO)C(=O)O)[C@@H](C)O)[C@@H](C)O	Spindlin-1 (SPIN1, Homo sapiens, UniProt Q9Y657)	binding, ITC	–	pH 7.5	147
C[n+]1ccc(/C=N/NC(=O)c2cncc(C(=O)N/N=C/c3cc[n+](C)c4ccccc34)n2)c2ccccc21	MYC promoter G4 DNA	binding, native ESI-MS	100 mM trimethylammonium acetate	1 mM KCl	120
